Results of several laboratories.
Several values in a cell are separate wells, animals, samples, runs or records. ± gives the spread as reported.

| Compound | assay | system | conditions | scale | quantity | result |
| --- | --- | --- | --- | --- | --- | --- |
| CS(=O)(=O)c1ccc(-c2nnc(/C=C/c3nnc(-c4ccc(C#N)cc4)o3)n2-c2ccccc2Cl)nc1 | RNA-seq GSEA, item: FALLER_STEM_MOUSE | organoids, small intestinal, Apc Q1405X, mouse | dose not given, wild-type organoids | reference: DMSO, direction not given | normalized enrichment score | -2.41 |
| CCCCC1(CCCC)CN(c2ccccc2)c2cc(SC)c(OCC(=O)N[C@@H](C(=O)NCC(=O)O)c3ccccc3)cc2S(=O)(=O)C1 | item: HDL cholesterol | human, serum | 2.5 mg once daily, day 2 |  | serum HDL-C | 57.2 mg/dL |
| CN1CCN(C(C(=O)NCCc2ccc(F)cc2)c2ccc(C#N)cc2)CC1 (stereo not shown) | qPCR | rat, male and female, prefrontal cortex | ip, 100 mg/kg twice daily, 7 days, added: clavulanic acid 10 mg/kg | reference: vehicle | GLT-1 mRNA level | no effect |
| CCCCCN1C[C@H](O)[C@@H](O)[C@H](O)[C@@H]1CO |  | Hexb-/- mouse | 300 mg/kg/day | reference: low dose | median survival increase | 7% |
| C[C@H]1O[C@@H](O[C@H]2CC[C@@]3(C)[C@@H](CC[C@]4(C)[C@@H]3C=C[C@]35OC[C@@]6(CCC(C)(C)C[C@H]63)[C@@H](O)C[C@]54C)[C@]2(C)CO)[C@H](O)[C@@H](O[C@@H]2O[C@H](CO)[C@@H](O)[C@H](O)[C@H]2O)[C@H]1O |  | Mus musculus, pair-fed, AAV8-TBG-SIRT1 shRNA hepatic SIRT1 knockdown, plasma | oral, high dose, 5 h |  | AST activity | 63.3 U/L and 47.6 U/L and 51.7 U/L and 51.9 U/L and 39.4 U/L and 34 U/L |
| CCCCC/C=C\C/C=C\C/C=C\Cc1ccccc1CCCC(=O)N[C@H](C)CO | mechanical hypersensitivity, electronic von Frey | mouse, CFA inflammatory pain | i.p., 5 mg/kg |  | duration of effect | ≥ 2 h |
| O=C(O)/C=C/C(=O)O.Oc1cccc2[nH]cc(CCNCc3ccccc3)c12 |  | C57BL/6J mice | subcutaneous, 0.3 mg/kg, 30 min |  | distance travelled | 2700 ± 316 cm |
| C[C@H](NC(=O)c1c(C(F)F)nn(C)c1Oc1cccc(C(F)(F)F)c1)c1ccc(C(=O)O)cc1 |  | human, advanced tumours | 750 mg |  | deaths | 0% |
| O=C(O)CNC(=O)c1cc2ccccc2n1Cc1ccc(C2CC2)c2ccccc12 |  | mouse, acute hyperuricaemia model | oral, 2 mg/kg | reference: model control | serum uric acid decrease | 63.5% |
| Cc1cn(-c2cc(NC(=O)c3ccc(C)c(Nc4nccc(-c5cccnc5)n4)c3)cc(C(F)(F)F)c2)cn1 |  | human patients | dose not given, 12 months from baseline, caregiver distress, within group | direction not given | change in mean NPI score | 2 |
| c1cncc([C@@H]2CCCN2)c1 | drug discrimination acquisition | drug-naive rat | 2 mg/kg, pretreatment | reference: saline | response rate | increased |
| CC[C@H](C)[C@@H]1NC(=O)[C@@H]2CCCN2C(=O)[C@H](CC(C)C)NC(=O)[C@H](CC(C)C)NC(=O)CNC(=O)[C@@H](NC(=O)[C@@H](NC(=O)[C@H](CC(=O)O)NC(=O)CNC(=O)[C@@H](NC(=O)[C@H](C)NC(=O)CNC(=O)[C@H](CCCCN)NC(=O)[C@H](CC(C)C)NC(=O)[C@H](CC(C)C)NC(=O)[C@H](CCCCN)NC(=O)CNC(=O)[C@@H](NC(=O)[C@@H](N)CC(C)C)C(C)C)C(C)C)C(C)C)CSSC[C@@H](C(=O)O)NC1=O | RNA-seq, item: Rab20 | mouse, traumatic brain injury model, frontal cortex and hippocampus | dose not given | reference: TBI alone | log2 fold change | -2.92 |
| C[C@]1(CO)Cc2ncn(-c3ccc(C#N)c(Cl)c3)c2C(=O)O1 | aldosterone synthesis, inhibitor, item: cortisol | healthy Japanese adults, urine | 3 mg, 0-24 h at steady state, multiple rising dose |  | urinary excretion | 84 mmol |
| CC1(C)C(=CC=C2CCCC(C=CC3=[N+](CCCCS(=O)(=O)[O-])c4ccc(S(=O)(=O)O)cc4C3(C)C)=C2Oc2ccc(S(=O)(=O)O)cc2)N(CCCCCC(=O)NCCCC[C@H](NC(=O)[C@H](CO)NC(=O)CNC(=O)CNC(=O)CNC(=O)[C@H](Cc2ccccc2)NC(=O)[C@H](CCCNC(=N)N)NC(=O)[C@@H]2CCCN2C(=O)[C@H](CC(N)=O)NC(=O)[C@@H]2CCCN2C(=O)[C@H](CO)NC(=O)[C@@H](N)CCCCN)C(N)=O)c2ccc(S(=O)(=O)O)cc21 | ex vivo photoacoustic imaging | CPC;Apc mice, excised colonic adenoma |  |  | tumour to background ratio | 2.25 |
| N.N.[Cl][Pt][Cl] |  | KSN/Slc nude mice, SAS xenograft | dose not given, day 0 |  | tumour volume | 71.7 mm3 and 55.4 mm3 and 75.8 mm3 and 44 mm3 and 74.1 mm3 and 97.5 mm3 and 81.1 mm3 and 41.3 mm3 |
| Nc1ncnc2c1ncn2[C@@H]1O[C@@H]2COP(=O)([S-])O[C@@H]3[C@H](O)[C@@H](COP([O-])(=S)O[C@H]2[C@H]1O)O[C@H]3n1cnc2c(N)ncnc21.[Na+].[Na+] (stereo partly shown) |  | C57BL/6J mouse B16-F10 melanoma | intratumoral, 1 mg/kg, three doses at 3-day intervals |  | complete response rate | 0% |
| COc1cc(C(=O)c2c[nH]c3cc(-c4cccc(OP(=O)([O-])[O-])c4)ccc23)cc(OC)c1OC.[Na+].[Na+] | bioluminescence imaging | mouse orthotopic RENCA-luc kidney tumour | 150 mg/kg single dose, 2.5 h | reference: baseline | bioluminescence signal | < 10% |
| [131I-].[Na+] | ATA response criteria | human, papillary thyroid cancer, distant metastases | 3700 MBq |  | excellent response | 28.2% |
| Cc1cccc(C)c1NC(=O)C1CCCCN1 (stereo not shown) |  | Sprague-Dawley rat, male, sciatic nerve | 30 mM |  | sensory block duration | 67.4 ± 17.4 min |
| C[C@]12CC[C@H](O)C[C@H]1CC[C@@H]1[C@@H]2CC[C@]2(C)[C@@H](c3ccc(=O)oc3)CC[C@]12O |  | female nude mouse LCC2 xenograft | 0.5 mg/kg, day 17, tamoxifen-resistant |  | tumour volume | 86.8 mm3 and 121 mm3 and 134 mm3 and 76.6 mm3 and 128 mm3 and 84.2 mm3 and 109 mm3 |
| CN1CCN(S(=O)(=O)c2cc([N+](=O)[O-])ccc2N(CCOS(C)(=O)=O)CCOS(C)(=O)=O)CC1 |  | NSG mice, sample CE PDX | intraperitoneal, 25 mg/kg weekly x3 | reference: vehicle | EFS delay (T-C) | > 58 days |
| c1ccc2c(c1)Nc1ccccc1S2 |  | CT26 tumour-bearing mice | intraperitoneal, 100 mg/kg equivalents daily, day 4 |  | tumour volume | 492 mm³ |

Repeated from above:
| Compound | assay | system | conditions | scale | quantity | result |
| --- | --- | --- | --- | --- | --- | --- |
| O=C(O)CNC(=O)c1cc2ccccc2n1Cc1ccc(C2CC2)c2ccccc12 |  | mouse, acute hyperuricaemia model | oral, 2 mg/kg | reference: model control | serum uric acid decrease | 63.5% |
| N.N.[Cl][Pt][Cl] |  | KSN/Slc nude mice, SAS xenograft | dose not given, day 0 |  | tumour volume | 71.7 mm3 and 55.4 mm3 and 75.8 mm3 and 44 mm3 and 74.1 mm3 and 97.5 mm3 and 81.1 mm3 and 41.3 mm3 |
